Results from different studies.
Compare with care: the assays were run in different laboratories. Values joined by “and” are separate records of one study, mostly repeats; a detail may differ. ± marks the error that the study gave.

| Compound | tested on | assay | system | setting | scale | endpoint | value |
| --- | --- | --- | --- | --- | --- | --- | --- |
| CN(C)C(=O)c1cc2cnc(Nc3ccc(N4CCNCC4)cn3)nc2n1C1CCCC1 |  |  | HR+/HER2− advanced breast cancer patients | dose not given, (neo)adjuvant hormone therapy |  | median PFS2 | 30.4 months |
| OC(CCN1CCCCC1)(c1ccccc1)C1CC2C=CC1C2 (centres unmarked) |  | resting-state EEG | healthy elderly humans | oral, 2 mg, eyes open, LS mean | baseline: baseline | change in EEG Alpha1-power Pz-O2 | 9.3% |
| O=S(=O)(NCCNC/C=C/c1ccc(Br)cc1)c1cccc2cnccc12 |  | embryonic development | mouse zygotes | 20 µM, 72 h post-hCG |  | two-cell embryos | 35% and 47.1% and 73.7% |
| O=C(NS(=O)(=O)c1ccccc1)c1cc2ccccc2n1Cc1ccc(Br)c2ccccc12 |  |  | male mouse, acute hyperuricaemia model, serum | oral, 2 mg/kg, 4 h |  | serum uric acid | 270 ± 49.1 µM |
| CN[C@@H](C)C(=O)N[C@H]1CN(S(=O)(=O)c2cccc(S(=O)(=O)N3CC[C@H]4CC[C@@H](C(=O)NC(c5ccccc5)c5ccccc5)N4C(=O)[C@@H](NC(=O)[C@H](C)NC)C3)c2)CC[C@H]2CC[C@@H](C(=O)NC(c3ccccc3)c3ccccc3)N2C1=O |  | RECIST 1.1 | advanced pancreatic cancer patients | dose not given, efficacy-evaluable, added: AG |  | median progression-free survival | 3.22 months |
| C[C@@H](NC(=O)N1C(=O)[C@H](Cc2ccnc(N)c2)[C@H]1C(=O)O)C1CCCCC1 |  |  | human | iv infusion, 0.3 mg/kg/h, 24 h, unit not given | baseline: baseline | ACT Emax | 1.09 |
| COc1ccc([C@@H](O)c2cc(-c3ncnc4cc(N5CCOCC5)ccc34)c(F)cc2Cl)nn1 |  | RECIST version 1.1 | patients, advanced solid tumours | 100 mg twice daily, added: avelumab | baseline: patients | objective response rate | 0% |
| COc1cc2nccc(Oc3ccc(NC(=O)NC4CC4)c(Cl)c3)c2cc1C(N)=O |  | PK/PD model NONMEM estimate | Thyroid cancer patients, differentiated, radioiodine-refractory |  |  | rate constant of resistance appearance | 0.259 /week |
| COc1cc(Nc2ncc3c(n2)-c2ccc(Cl)cc2C(c2c(F)cccc2OC)=NC3)ccc1C(=O)O |  |  | mouse, OS-1 osteosarcoma xenograft | oral, 20.8 mg/kg, day 21 | baseline: vehicle | relative tumour volume T/C | 1.26 |
| N#CCC1CCN(c2nc(Nc3ccc(N4CCC(O)CC4)cc3)c3c(=O)[nH]ncc3n2)CC1 |  | Olink multiplex | human, serum | 40 mg, day 15, unit not given | baseline: baseline | osteopontin level change | -1.28 |
| [Mn+2] |  | flow cytometry | CD4-negative PBMC, BALB/c mouse | dose not given | baseline: no Mn2+ | CD18-low cell fraction | 35 and 67.5 and 88 and 29.5 and 81 and 47.1 and 25.4 and 88.6 |
| COC(=O)c1sc(-c2cccs2)cc1NC(=O)/C=C/C(=O)O |  | ELISA | bone marrow-derived macrophages, C57BL/6J mice | dose not given, 48 h, added: LPS 24 h |  | TNF-α release | decreased |
| O=c1cc(-c2ccc(O)c(O)c2)oc2cc(O)cc(O)c12 |  | Western blot, item: occludin, claudin-1, ZO-1 | duck, intestine | dose not given |  | protein level | decreased |
| COc1ccc(-c2cncc(N[C@@H](C)c3cccc(NC(=O)c4cncc(C)c4)c3)n2)cc1OC |  | item: rno-miR-323-3p | rat SU5416/hypoxia model, lung | dose not given | baseline: SU5416/hypoxia vehicle | fold change | 1.29 |
| COc1cc2cc(-c3ccc(CC(=O)Nc4cc(C(C)(C)C(F)(F)F)no4)cn3)cnc2cc1OC |  | RECIST v1.1 | human RET-altered solid tumours | dose not given, phase I |  | best overall response PD | 28% |
| NS(=O)(=O)c1cc(C(=O)O)c(NCc2ccco2)cc1Cl |  | barrier function (TEER) | human ileal GI microtissue EpiIntestinal-FT |  |  | IC15 | > 100 µM |
| COc1nnc2ccc(N3CCC(c4ccc(OCCN5CCN(C)C(=O)[C@H]5C)cc4)CC3)nn12 |  |  | human patients | 30 mg once daily, above baseline variability |  | time above HEXIM1 threshold | 5.62 h |
| O=C(O)CCc1nccc2c1[nH]c1ccccc12 |  |  | mouse, acute hyperuricaemia model, serum | oral, 2 mg/kg | baseline: vehicle model | serum uric acid decrease | 50.7% |
| N#Cc1ccn2c(-c3ccncc3)c(-c3ccc(F)cc3)nc2c1 |  | kinase binding, competitor, MIB/MS competition, item: KSP1 | Candida albicans cell lysate | 100 nM | baseline: DMSO | log2 fold change | -0.0594 |
| Cc1c(C)c2c(c(C)c1O)CC[C@@](C)(CCC[C@H](C)CCC[C@H](C)CCCC(C)C)O2 |  | Cu2+ reduction, CUPRAC |  | 30 µg/mL |  | absorbance | 0.552 ± 0.085 |
| O=C(O)/C=C/c1nccc2c3ccccc3n(Cc3ccc(C4CC4)cc3)c12 |  |  | mouse, acute hyperuricaemia model, serum | oral, 2 mg/kg, individual animal data |  | serum uric acid | 419 µM and 468 µM and 307 µM and 378 µM |
| NC(=O)c1cnc2[nH]ccc2c1N[C@@H]1[C@@H]2CC3C[C@H]1C[C@@](O)(C3)C2 |  | CD8+ effector T cells, flow cytometry | Caucasian humans, peripheral blood | 60 mg single dose | baseline: baseline | percent change | -0.12% |
| COc1ccc2c(c1)CC[C@@H]1[C@@H]2CC[C@]2(C)[C@@H](NCCCCCCN3C(=O)C=CC3=O)CC[C@@H]12 |  | astrogliosis, immunostaining | humanized UT mouse, subarachnoid haemorrhage model, meninges | dose not given, day 1 | baseline: total area | GFAP-positive area | 0.49% |
| O=C(COc1ccc(Cl)cc1)NC12CC(c3nnc([C@H]4C[C@@H](OC(F)(F)F)C4)o3)(C1)C2 |  |  | healthy human, PBMC | oral, 400 mg single dose, day 1, 4 h post-dose, median, added: sodium arsenite ex vivo | baseline: baseline | CHAC1 mRNA change | -59.8% |
| CC(C)NCC(O)c1ccc(O)c(O)c1 (centres unmarked) |  |  | ventricular cardiomyocytes, C57BL/6 mouse | dose not given, 0.736 s |  | sarcomere length | 1.72 µm |

| Compound | tested on | assay | system | setting | scale | endpoint | value |
| --- | --- | --- | --- | --- | --- | --- | --- |
| CC(C)[C@H](NC(=O)[C@H](Cc1ccc(O)cc1)NC(=O)[C@H](Cc1ccc(O)cc1)NC(=O)[C@@H]1CCCN1C(=O)[C@H](CCC(=O)O)NC(=O)[C@H](CCC(=O)O)NC(=O)[C@H](Cc1c[nH]c2ccccc12)NC(=O)[C@@H]1CCCN1C(=O)[C@@H](NC(=O)[C@H](CCC(N)=O)NC(=O)c1ccc2c(c1)C(=O)OC21c2ccc(O)cc2Oc2cc(O)ccc21)C(C)C)C(=O)N[C@H](C(=O)N[C@@H](CCCCN)C(=O)N[C@@H](CCCCN)C(=O)N[C@@H](CO)C(=O)N[C@@H](CO)C(=O)NCC(=O)NCC(N)=O)C(C)C |  | nerve discrimination | head and neck surgery patients | 500 mg | baseline: white light | surgeons rating much improved | 21.4% |
| CO[C@H]1CC[C@H](N2C(=O)CNc3ncc(-c4ccc(C(C)(C)O)nc4)nc32)CC1 |  | flow cytometry | stimulated monocytes, human, blood | 60 mg single dose, 5 h, median | baseline: baseline | pAKT change from baseline | -51% |
| [Cl-].[Cl-].[Pt+2].[Ru+2].c1ccc(-c2nc3ccccc3nc2-c2ccccn2)nc1.c1cnc2c(c1)ccc1cccnc12.c1cnc2c(c1)ccc1cccnc12 |  |  |  | concentration not given, first substitution step, added: L-methionine |  | activation enthalpy | 6.21 ± 0.478 kcal/mol |
| C[C@H]1C[C@H]2CSC(N)=N[C@@]2(c2nc(NC(=O)c3ccc(OC(F)F)cn3)cs2)CO1 |  | item: Aβx-40 | healthy adults, plasma | 125 mg once daily, day 14 | baseline: placebo | percent change from baseline | -71.7% |
| C=CCn1c(=O)c2cnc(Nc3ccc(N4CCN(C)CC4)cc3)nc2n1-c1ccc2c(n1)[C@@](O)(CC)CC2 |  |  | OVCAR-3 xenograft, NOD/SCID mouse | 100 mg/kg once daily, :4 |  | tumour growth inhibition | 94.4% |
| O=C(O)CCc1nccc2c3ccccc3n(Cc3ccc(Br)c4ccccc34)c12 |  |  | mouse, acute hyperuricaemia model, serum | oral, 2 mg/kg | baseline: vehicle model | serum uric acid decrease | 72.9% |
| C[C@H](Oc1ccc(Br)cc1-c1ccon1)C(=O)O |  | mean CMAP amplitude | human, tibialis anterior muscle | 100 mg, SAD |  | difference from placebo | 0.128 mV |
| Cn1cc([C@H]2C[C@H]3CSC(N)=N[C@@]3(c3ccc(F)cc3F)CO2)cn1 |  | item: Aβx-42 | Mus musculus wild-type, brain | subcutaneous, 3 mg/kg, 6 h |  | Aβ42 level | 0.49 ng/g |
| C[C@@H]1CCC[C@H](n2cnc(-c3cc(Cl)ccc3-n3cc(Cl)nn3)cc2=O)c2cc(ccn2)-c2c(cnn2C(F)F)NC1=O |  |  | cynomolgus monkey plasma | IC2.5× aPTT, STA-PTT reagent |  | concentration for aPTT prolongation | 1400 nM |
| [Cl-].[Cl-].[Pt+2].[Ru+2].c1ccc(-c2nccnc2-c2ccccn2)nc1.c1cnc2c(c1)ccc1cccnc12.c1cnc2c(c1)ccc1cccnc12 |  |  |  | concentration not given, first substitution step, added: thiourea |  | activation enthalpy | 7.89 ± 0.478 kcal/mol |
| CSCCNc1nc(SCCC(F)(F)F)nc2c1ncn2[C@@H]1O[C@H](COP(=O)(O)OP(=O)(O)C(Cl)(Cl)P(=O)(O)O)[C@@H](O)[C@H]1O |  | ADP-induced platelet aggregation, Multiplate aggregometry | human patients, whole blood | dose not given, 3 h, AUC above 46 | baseline: patients | high residual platelet reactivity | 48.5% |
| CC(=O)O[C@H]1C(=O)[C@@]2(C)[C@H]([C@H](OC(=O)c3ccccc3)[C@]3(O)C[C@H](OC(=O)[C@H](O)[C@@H](NC(=O)c4ccccc4)c4ccccc4)C(C)=C1C3(C)C)[C@]1(OC(C)=O)CO[C@@H]1C[C@@H]2O |  |  | rats, DMBA-induced mammary tumours | dose not given, day 21 |  | tumour volume | 0.17 ± 0.03 cm3 |
| CN[C@@H]1COc2c(S(=O)(=O)NC(=O)Nc3c4c(cc5c3CCC5)CCC4)cnn2C1 |  | item: IL-18 | human participants, whole blood ex vivo | 900 mg twice daily, multiple doses, 148 h, IL-18, circulating, adjusted for, added: LPS/ATP | baseline: baseline | inhibition | 101% |
| Cn1cc(Nc2nccc(-c3ccc4c(c3)CN(C3COC3)CC[C@H]4NC(=O)c3cn(C(C)(C)C)nn3)n2)cn1 |  | item: Glioma Invasiveness Signaling | splenic B cells, mouse | in vivo, 30 mg/kg, IgD-activated B cells | baseline: vehicle, positive = activation | pathway activation z-score | 2.71 |
| O=C(O)CNC(=O)Cc1ccccc1 |  |  | ventricular cardiomyocytes, C57BL/6 mouse | dose not given, 0.552 s |  | sarcomere length | 1.62 µm |
| O=C1Nc2cc3[nH]nc(-c4ccncc4)c3cc2CN1Cc1ccccc1 |  | RECIST v1.1 | human, relapsed or refractory advanced solid tumours | intravenous, 4.8 mg/kg |  | partial response, best response | 0% |
| Cc1ccc([C@@H]2O[C@H](CO)[C@@H](O)[C@H](O)[C@H]2O)cc1Cc1ccc(-c2ccc(F)cc2)s1 |  |  | Japanese type 2 diabetes patients | 400 mg, day 1 | baseline: day 0 | change in 24-h mean serum insulin | -4.1 µU/mL |
| O=c1oc2c(O)c(O)cc3c(=O)oc4c(O)c(O)cc1c4c23 | OCI-Ly1 |  |  | 0.5 µM, 120 h |  | viability | 86.3% |
| Cc1n[nH]c2ccc(-c3cc(OC[C@@H](N)Cc4ccccc4)cnc3-c3ccoc3)cc12 |  | kinase binding, competitor, MIB/MS competition, item: CMK2 | Candida albicans cell lysate | 1 µM | baseline: DMSO | log2 fold change | 0.585 |
| COCCOc1cnc2ccn([C@H](C)c3nnc4c(F)cc(-c5cnn(C)c5)cn34)c(=O)c2c1 |  |  | advanced solid tumours | dose not given |  | median duration of response | 202 days |
| Cc1nn(-c2nc3c(F)cc(F)cc3s2)c(O)c1C(c1ccc(C(F)(F)F)cc1)c1c(C)nn(-c2nc3c(F)cc(F)cc3s2)c1O |  |  | mouse, cerulein-induced acute pancreatitis, serum | 25 mg/kg |  | serum amylase activity | 71.1 mOD/min and 102 mOD/min and 67 mOD/min and 135 mOD/min and 97.5 mOD/min and 153 mOD/min and 86.3 mOD/min and 43.9 mOD/min |
| CN(C)C(=O)c1cc2cnc(Nc3ccc(N4CCNCC4)cn3)nc2n1C1CCCC1 |  | RNA-seq GSEA, item: HALLMARK_APICAL_JUNCTION | MB002 tumour | concentration not given, in vivo | baseline: vehicle, direction not given | GSEA enrichment score | -0.234 |
| OC[C@H]1O[C@@H](c2ccc(Cl)c(Cc3ccc(O[C@H]4CCOC4)cc3)c2)[C@H](O)[C@@H](O)[C@@H]1O |  |  | Japanese type 1 diabetes patients | 25 mg, day 28, 672 h | baseline: baseline | systolic blood pressure change | 3.4 mmHg |
| Cc1cc(Nc2ncc(Cl)c(Nc3ccccc3S(=O)(=O)C(C)C)n2)c(OC(C)C)cc1C1CCNCC1 |  |  | human | dose not given |  | duration of complete response | 10.3 months |
| CCc1oc2ccccc2c1C(=O)c1cc(Br)c(O)c(Br)c1 |  |  | mouse, acute hyperuricaemia model, serum | oral, 2 mg/kg | baseline: vehicle model | serum uric acid decrease | 80.6% |
